Measured values gathered from unrelated publications.
Lines come from different studies, so protocols differ. Numbers after ± are the reported error.

| Structure (SMILES) | test | test system | setting | scale | measurement | value |
| --- | --- | --- | --- | --- | --- | --- |
| COC(=O)C(c1ccccc1Cl)N1CCC(SCC(=O)c2cccc(OC)c2)C(=CC(=O)O)C1 (stereo not drawn) | LC-MS/MS | human plasma | 2 ng/mL, 45 days, -80 °C | – | measured concentration | 2 ± 0.1 ng/mL |
| [11CH3]c1ccc2nc(C3CCC3)n(-c3ccc4[nH]ncc4c3)c2n1 | – | standard human adult, skin | – | – | absorbed radiation dose | 2 µSv/MBq |
| O=C([O-])CN1CCN(CC(=O)[O-])CCN(CC(=O)NCC2CCC(C(=O)NC(Cc3ccc4ccccc4c3)C(=O)NCCCCC(NC(=O)NC(CCC(=O)O)C(=O)O)C(=O)O)CC2)CCN(CC(=O)[O-])CC1.[44Sc+3] (stereo not drawn) | PET/CT dosimetry, OLINDA/EXM | human, spleen | – | – | residence time | 0.053 h |
| NC12CNCCNCC(NCc3ccc(CNC(=O)CCCC(=O)NCc4ccc(-c5nncnn5)cc4)cc3)(CNCCNC1)CNCCNC2.[64Cu+2] | OLINDA dosimetry | pancreas | 24 h pretargeting interval, added: huA33-TCO pretargeting | – | mean absorbed dose | 0.0391 rad/mCi |
| O=C(O)C1CN(Cc2ccc(-c3noc(-c4ccc(OCC[18F])c(C(F)(F)F)c4)n3)cc2)C1 | – | rat, liver | intravenous, 30 min | – | tracer uptake | 5.51 %ID/g |
| CC(C)[C@H](NC(=O)CNC(=O)[C@H](CCC(N)=O)NC(=O)[C@H](C)N)C(=O)O | LC-MS/MS | human, plasma | intravenous, 30 mg/kg three times daily, day 3, first dose, 10 min infusion, geometric mean | – | AUC(0-last) | 572 ng·h/mL |
| COc1ccc(-c2cc(=O)c3c(O)cc(O[C@@H]4O[C@H](CO[C@@H]5O[C@@H](C)[C@H](O)[C@@H](O)[C@H]5O)[C@@H](O)[C@H](O)[C@H]4O)cc3o2)cc1 | freeze-thaw stability | rat plasma | 3 days, low QC, 3 freeze-thaw cycles | – | measured concentration | 7.02 ± 0.73 ng/mL |
| CC12CC(c3ccc(S(C)(=O)=O)cc3)C3=C4CCC(=O)C=C4CCC3C1CCC2(O)C(F)(F)C(F)(F)F (stereo not drawn) | – | human, fasted, plasma | oral, 4 mg, alone, without itraconazole | – | AUC(0-3 d), geometric mean | 247 ng·h/mL |
| Cc1c(NC(=O)c2ccc3c(c2)CC[C@@H]2C[C@@](O)(C(F)(F)F)CC[C@@]32Cc2ccccc2)ccc[n+]1[O-] | inducer, refers to: CYP3A4 mRNA | cryopreserved human hepatocytes | concentration not given, 72 h, hepatocyte | relative to: rifampin 10 µM | Emax | 53% |
| O=C(O)[C@@H]1C[C@@H](O)CN1C(=O)[C@@H]1CCCN1 | potentiometric titration | – | 37 °C, MAH-2 complex, added: Fe(III) | – | log beta | 4.04 |
| CC(C)(C)NCC(SS(=O)(=O)O)c1ccccc1 (stereo not drawn) | – | Swiss Webster mouse, female, plasma | intravenous, 15 mg/kg, AUC to infinity | – | initial volume of distribution | 0.403 L/kg |
| CC(=O)[CH](C(C)=O)[Pt-2]1([S+](C)C)[O]C(C)=CC(C)=[O+]1 (stereo not drawn) | – | rat, blood | intravenous, 20 mg/kg, single dose | – | ALT | 28.6 ± 5.6 U/L |
| C[N+](C)(C)CCO.O=C(O)[C@@H](O)Cc1ccccc1.O=C([O-])[C@@H](O)Cc1ccccc1 | thermogravimetric analysis | – | 5% mass loss, nitrogen | – | decomposition temperature | 160 °C |
| CCN(CC)c1ccc2c(-c3ccc(S(=O)(=O)NCCNC(=O)CN4CCN(CC(=O)[O-])CCN(CC(=O)O)CCN(CC(=O)[O-])CC4)cc3S(=O)(=O)[O-])c3ccc(=[N+](CC)CC)cc-3oc2c1.[64Cu+2] | radio-HPLC | athymic nude mice, urine | 30 and 120 min post-injection | – | metabolic stability | stable |
| COc1cc(NC(C)=O)c2c(c1O)-c1c(OC)c(OC)cc3c1C(C2)N(C)CC3 (stereo not drawn) | – | rat kidney homogenate | 100 µg/mL, 40 d, -20 °C, long-term storage | – | remaining compound | 90.6 ± 2.1% |
| CCOc1ccc2c(c1)C(C)CC(C)(C)N2 (stereo not drawn) | LC-MS/MS | Holstein cattle, subcutaneous fat | oral in feed, 50 mg/kg complete feed ethoxyquin, 42 days | – | highest tissue residue | 8.7 ng/g |
| CCCCCC(O)C=CC1OC2OC(C1CC=CCCCC(=O)O)C2(F)F (stereo not drawn) | – | phosphate buffer with DMSO | concentration not given, pH 2.42 | – | hydrolysis half-life | 190 h |
| N=C(N)NCCC[C@@H]1NC(=O)[C@H](CCCCNC(=O)CON=C[C@H](F)[C@@H](O)[C@H](O)[C@H](O)CO)NC(=O)[C@@H](Cc2ccc(O)cc2)NC(=O)[C@H](CC(=O)O)NC(=O)CNC1=O [fluorine-18 labelled] | – | nude mice, U-87 MG xenograft, tumour | intravenous, 0.5 h | – | tumour uptake | 0.63 ± 0.13 %ID/g |
| COc1cc(-c2nc3ccccc3s2)cc(CN2Cc3cccc(n3)CN(C)Cc3cccc(n3)C2)c1O | UV-vis spectrophotometric titration, refers to: HL/L- equilibrium | MeOH/water with NaCl | 50 µM, room temperature, NaCl 0.1 M, MeOH ≤20% v/v | – | pKa4 | 9.6 |
| CCCCCCCC(=O)OC[C@H](NC(=O)[C@H](CO)NC(=O)CN)C(=O)N[C@@H](Cc1ccccc1)C(=O)N[C@@H](CC(C)C)C(=O)N[C@@H](CO)C(=O)N1CCC[C@H]1C(=O)N[C@@H](CCC(=O)O)C(=O)N[C@@H](Cc1cnc[nH]1)C(=O)N[C@@H](CCC(N)=O)C(=O)N[C@@H](CCCNC(=N)N)C(=O)N[C@H](C(=O)N[C@@H](CCC(N)=O)C(=O)N[C@@H](CCC(N)=O)C(=O)N[C@@H](CCCNC(=N)N)C(=O)N[C@@H](CCCCN)C(=O)N[C@@H](CCC(=O)O)C(=O)N[C@@H](CO)C(=O)N[C@@H](CCCCN)C(=O)N[C@@H](CCCCN)C(=O)N1CCC[C@H]1C(=O)N1CCC[C@H]1C(=O)N[C@@H](C)C(=O)N[C@@H](CCCCN)C(=O)N[C@@H](CC(C)C)C(=O)N[C@@H](CCC(N)=O)C(=O)N1CCC[C@H]1C(=O)N[C@@H](CCCNC(=N)N)C(=O)O)C(C)C | – | chronic HFrEF patients | intravenous infusion, 0.1 µg/kg/min, 30 min after infusion end | – | heart rate | 68.2 ± 11.4 bpm |
| Cc1ccc(-c2ccc(-c3cc4sccc4o3)cn2)nc1 | – | aqueous HEPES buffer | pH 7.4, zinc(II) complex | – | fluorescence lifetime | 3.29 ns |
| Cn1c(=O)oc2ccc(-c3ccc(CC(C#N)NC(=O)C4CNCCCO4)c(F)c3)cc21 (stereo not drawn) | refers to: white blood cells in urine | human volunteers | 15 mg single dose, fasted | – | share of subjects with TEAE | 16.7% |
| COc1cc(N(C)CCN(C)C)c(NC(=O)CCSCC(N)C(=O)O)cc1Nc1nccc(-c2cn(C3CC3)c3ccccc23)n1 (stereo not drawn) | radio-HPLC, co-eluting peaks pooled | human, feces | dose not given, 0 to 240 h, sample holds 81.99% dose | relative to: sample radioactivity | share of radioactivity | 2.3% |
| CCC1(CC)C[C@@H](NC(=O)Nc2cccc3c(C)nccc23)c2cc(F)ccc2O1 | – | Trpv1+/+ mouse, abdomen | intraperitoneal, 10 mg/kg | relative to: vehicle | decrease in body temperature | > 2 °C |
| C=CC(=C)CC[C@]1(C)[C@H](C)C[C@H](O)[C@@]23C(=C[C@H](OC(=O)C(C)C)C[C@@H]12)[C@@H](OC(C)=O)O[C@H]3OC(C)=O | haemolysis | – | 20 µM | – | haemolysis | 10.6% |
| Cc1ccc(OCC(=O)O)cc1 | – | Sprague-Dawley rat, female, plasma | oral, 30 mg/kg/day of parent drug, day 1, 90-day repeated dosing | – | Tmax | 3 h |
| CNC(=O)N[C@]1(C)CCC[C@@]2(C)C3CC[C@@]4(C)C[C@]3(CCC21)CC4=O (single isomer, unassigned) | – | rat plasma | 400 ng/mL, 8 h, room temperature, short-term stability | – | measured concentration | 371 ± 13.3 ng/mL |
| CC=C1C(OC2OC(CO)C(O)C(O)C2O)OC=C(C(=O)OC)C1CC(=O)OCC1OC(OCCc2ccc(O)cc2)C(O)C(O)C1O (stereo not drawn) | – | pseudo-germfree tumour-bearing Balb/c mice, plasma | oral, 109.2 mg/kg | – | half-life | 1.09 h |
| COC(=O)c1ccc2c(c1)NC(=O)/C2=C(\Nc1ccc2c(c1)CCN2C(=O)CN1CCOCC1)c1ccccc1 | – | beagle dog, blood | intravenous | – | Vss relative to total body water | 7.5 |
| Cc1cc(C(=O)N[C@@H](CO)CC(C)C)ccc1CO | LC-MS | Sprague-Dawley rat, both sexes, rat liver microsomes | 10 µM of parent drug, 20 min, pH 7.4, added: NADPH | relative to: parent drug at time zero | metabolite peak area | 2.7% |

Excerpt of the above:
| Structure (SMILES) | test | test system | setting | scale | measurement | value |
| --- | --- | --- | --- | --- | --- | --- |
| Cc1c(NC(=O)c2ccc3c(c2)CC[C@@H]2C[C@@](O)(C(F)(F)F)CC[C@@]32Cc2ccccc2)ccc[n+]1[O-] | inducer, refers to: CYP3A4 mRNA | cryopreserved human hepatocytes | concentration not given, 72 h, hepatocyte | relative to: rifampin 10 µM | Emax | 53% |
| COc1cc(-c2nc3ccccc3s2)cc(CN2Cc3cccc(n3)CN(C)Cc3cccc(n3)C2)c1O | UV-vis spectrophotometric titration, refers to: HL/L- equilibrium | MeOH/water with NaCl | 50 µM, room temperature, NaCl 0.1 M, MeOH ≤20% v/v | – | pKa4 | 9.6 |
| N=C(N)NCCC[C@@H]1NC(=O)[C@H](CCCCNC(=O)CON=C[C@H](F)[C@@H](O)[C@H](O)[C@H](O)CO)NC(=O)[C@@H](Cc2ccc(O)cc2)NC(=O)[C@H](CC(=O)O)NC(=O)CNC1=O [fluorine-18 labelled] | – | nude mice, U-87 MG xenograft, tumour | intravenous, 0.5 h | – | tumour uptake | 0.63 ± 0.13 %ID/g |
| CNC(=O)N[C@]1(C)CCC[C@@]2(C)C3CC[C@@]4(C)C[C@]3(CCC21)CC4=O (single isomer, unassigned) | – | rat plasma | 400 ng/mL, 8 h, room temperature, short-term stability | – | measured concentration | 371 ± 13.3 ng/mL |
